Measured values of several laboratories.
Parts stem from different laboratories: compare values within a part only.

Set 1
Target: Sal-like protein 4, full length isoform A (SALL4, Homo sapiens, UniProt Q9UJQ4, residues 1-1053)
UniProt Q9UJQ4, sequence (whole entry, looked up): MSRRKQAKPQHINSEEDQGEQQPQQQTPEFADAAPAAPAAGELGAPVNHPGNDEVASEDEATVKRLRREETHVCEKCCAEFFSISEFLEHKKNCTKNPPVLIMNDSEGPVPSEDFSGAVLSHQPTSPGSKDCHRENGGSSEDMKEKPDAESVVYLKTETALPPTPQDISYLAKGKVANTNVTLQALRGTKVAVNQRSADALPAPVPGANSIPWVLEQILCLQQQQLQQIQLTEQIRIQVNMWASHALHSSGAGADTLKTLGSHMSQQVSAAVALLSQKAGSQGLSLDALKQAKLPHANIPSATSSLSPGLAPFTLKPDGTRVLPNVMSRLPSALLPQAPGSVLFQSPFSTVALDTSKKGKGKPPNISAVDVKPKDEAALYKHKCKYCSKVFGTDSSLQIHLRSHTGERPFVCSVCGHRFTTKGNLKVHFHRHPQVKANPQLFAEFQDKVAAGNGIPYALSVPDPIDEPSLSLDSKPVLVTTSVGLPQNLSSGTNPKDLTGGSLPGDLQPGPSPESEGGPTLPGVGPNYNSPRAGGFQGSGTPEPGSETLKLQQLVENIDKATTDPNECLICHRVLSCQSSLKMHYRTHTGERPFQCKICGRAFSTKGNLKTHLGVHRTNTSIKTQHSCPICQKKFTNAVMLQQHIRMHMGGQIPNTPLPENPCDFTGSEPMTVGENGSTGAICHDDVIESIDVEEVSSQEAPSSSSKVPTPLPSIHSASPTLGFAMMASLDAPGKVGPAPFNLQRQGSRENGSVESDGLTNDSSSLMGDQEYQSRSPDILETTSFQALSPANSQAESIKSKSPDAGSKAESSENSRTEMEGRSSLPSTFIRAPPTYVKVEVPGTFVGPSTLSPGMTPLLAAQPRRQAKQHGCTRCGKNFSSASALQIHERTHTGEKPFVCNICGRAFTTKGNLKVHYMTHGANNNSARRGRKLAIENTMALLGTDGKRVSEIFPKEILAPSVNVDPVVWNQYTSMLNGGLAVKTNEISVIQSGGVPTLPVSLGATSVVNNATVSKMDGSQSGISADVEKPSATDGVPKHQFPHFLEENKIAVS
Technique: universal PBM
Form: double-stranded DNA, one strand shown
Sample: in vitro
Concentration: 600 nM
Notes: 8-mer, flanks averaged, mean of replicates
Direction: higher = stronger binding
`TGAGTCAA` has an E-score of 0.12.
`AGCGTTCG` has an E-score of -0.237.
`AGCTACCT` gave an E-score of -0.0547.
For `ATCATTTC`, the E-score was 0.275.
With `AGGAGTTG` the E-score was 0.0602.
For `ATTAGCAC`, the E-score was 0.0924.
For `CAGTTACA`, the E-score was 0.21.
With `GCATCGCA` the E-score was -0.171.
For `CCAGAAGG`, the E-score was -0.146.
With `CAATTCGC` the E-score was 0.00675.
For `ACTCATAG`, the E-score was 0.148.
For `ACCGAAAG`, the E-score was 0.0992.
With `AAAATTGT` the E-score was 0.346.
`CTACGCGC` has an E-score of -0.268.
For `GTATTAGA`, the E-score was 0.267.
`AAGCCATA` gave an E-score of 0.115.
With `AACCCGAA` the E-score was 0.00203.
With `CTGCTAAC` the E-score was -0.0395.
With `CATCCCGG` the E-score was -0.256.
`ATCTATTG` gave an E-score of 0.248.
The E-score of `GCCAACCA` is reported as -0.166.

Set 2
Target: Fragile X messenger ribonucleoprotein 1, C-terminal low-complexity region (Fmr1, Mus musculus, UniProt P35922)
Technique: RNA Bind-n-Seq
Form: RNA
Sample: in vitro
Concentration: 200 nM
Notes: whole 134-nt RNA, ends assumed
With: 150 mM LiCl
Reference: input library
Direction: higher = stronger binding
Each molecule: 7-deaza-guanosine replaces G
`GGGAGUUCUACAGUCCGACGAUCUGUGCUACACAUCGUAUGUACCGAAUCGGGCCCCCCCGGGGCCCCCCCGGGGCCCCCCCGGGAAAGUAUUAUGUUACGCCGUUCGGAUCUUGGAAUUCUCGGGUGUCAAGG` gave a log2 enrichment of -2.01.
`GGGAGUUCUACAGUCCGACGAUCCAAGUCCUGUGCUACACAUCGUAUGUACCGAAUCGGGGAAGGGGAAGGGGAAGGGGAAAGUAUUAUGUUACGCCGUUCGGAUCUGCACUUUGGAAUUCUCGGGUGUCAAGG` gave a log2 enrichment of -0.00729.
`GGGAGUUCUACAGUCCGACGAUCCCUGUGCUACACAUCGUAUGUACCGAAUCGGGUUUUUUGGGGUUUUUUGGGGUUUUUUGGAAAGUAUUAUGUUACGCCGUUCGGAUCUGCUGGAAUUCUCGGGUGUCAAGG` gave a log2 enrichment of 0.152.
For `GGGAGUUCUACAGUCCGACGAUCGUGCUACACAUCGUAUGUACCGAAUCGGGGAAAAAAAGGGGUUUUUUUGGGGAAAAAAAGGGGAAAGUAUUAUGUUACGCCGUUCGGAUCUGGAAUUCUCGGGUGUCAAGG`, the log2 enrichment was -1.79.
For `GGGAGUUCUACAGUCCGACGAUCAAGUCCUGUGCUACACAUCGUAUGUACCGAAUCGGGAAAAAGGAAAAAGGAAAAAGGAAAGUAUUAUGUUACGCCGUUCGGAUCUGCACUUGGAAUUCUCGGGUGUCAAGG`, the log2 enrichment was -0.872.
`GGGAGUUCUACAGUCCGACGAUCCCUCAAGUCCUGUGCUACACAUCGUAUGUACCGAAUCGGGAGGGGAGGGGAGGAAAGUAUUAUGUUACGCCGUUCGGAUCUGCACUUCCAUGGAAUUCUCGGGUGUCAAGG` has a log2 enrichment of -1.31.
`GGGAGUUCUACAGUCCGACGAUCCAUAGACAACACGCACCCACACAGACACAGAGGGAAGGGGUUGGGAUGGGGACAGGGUGCACAGCAGGGCGGGGUAGGACCCCAGCCCCUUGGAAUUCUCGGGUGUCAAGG` has a log2 enrichment of 0.711.
With `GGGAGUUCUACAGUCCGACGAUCUCCUGUGCUACACAUCGUAUGUACCGAAUCAAAUUUUUUUAAACCCCCCCAAACCCAAAAAAGUAUUAUGUUACGCCGUUCGGAUCUGCAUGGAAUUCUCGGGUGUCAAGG` the log2 enrichment was 2.06.

Set 3
Target: Interferon regulatory factor 7, full length, phosphomimetic (IRF7, Homo sapiens, UniProt Q92985, residues 1-503, S471D/S472D/S475D/S476D/S477D/S483D/S484D/S487D)
Technique: protein-binding microarray
Form: double-stranded DNA, one strand shown
Sample: in vitro
Concentration: 2200 nM top
Notes: 60-bp whole probe
With: salmon DNA 0.4 mg/ml
Reference: random background probes
Direction: higher = stronger binding
Shared flanks, not repeated: GCCTAGCAC … GTCTTGATTCGCTTGACGCTGCTG
Construct (chain): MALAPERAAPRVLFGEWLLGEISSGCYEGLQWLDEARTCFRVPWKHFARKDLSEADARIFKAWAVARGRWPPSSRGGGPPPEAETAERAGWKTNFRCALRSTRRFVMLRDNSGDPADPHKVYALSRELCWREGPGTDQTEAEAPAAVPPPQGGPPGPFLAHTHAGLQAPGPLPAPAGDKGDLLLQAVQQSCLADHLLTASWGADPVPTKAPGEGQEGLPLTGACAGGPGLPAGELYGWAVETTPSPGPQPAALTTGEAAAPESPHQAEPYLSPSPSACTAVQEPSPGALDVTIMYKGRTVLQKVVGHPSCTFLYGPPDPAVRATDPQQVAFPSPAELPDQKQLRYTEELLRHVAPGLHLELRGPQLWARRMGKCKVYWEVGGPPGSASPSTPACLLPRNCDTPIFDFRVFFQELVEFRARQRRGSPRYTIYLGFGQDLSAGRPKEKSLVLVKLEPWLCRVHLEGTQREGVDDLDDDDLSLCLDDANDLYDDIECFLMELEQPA
Under “fitted relative affinity”, `TTATTTATAAATTATCTTTAAGTGCTA` is recorded as -0.551 z-score.
For `GACGGACTGAACTATCGGGACGTGCTA`, “fitted relative affinity” read -0.367 z-score.
`TTTGATATCAGTATCGATTAGTGCTAG` — result for “fitted relative affinity”: 0.402 z-score.
`TCATTTTTTCTTTTATTACTGTGCTAG`: “fitted relative affinity” 3.39 z-score.
`GACTGTCTCCTTCTCCTGACGTGCTAG`: “fitted relative affinity” 1.53 z-score.
For `TTAGGACTGGGTCGCGGTTAGTGCTAG`, “fitted relative affinity” read -0.505 z-score.
Under “fitted relative affinity”, `TCATTTGTATTTTTGATACTGTGCTAG` is recorded as 1.62 z-score.
`TTAGATCTCATACTGGATTAGTGCTAG`: “fitted relative affinity” 0.145 z-score.
For `TTAGGTATCGACACTAGGTTAGTGCTA`, “fitted relative affinity” read -0.283 z-score.
`TTAGGTCTCGACACTGGGTTAGTGCTA` — result for “fitted relative affinity”: -0.322 z-score.
`CACGGTATCCTTATCCTGACGTGCTAG` — result for “fitted relative affinity”: 1.03 z-score.
For `GAGGGTATCGACTATCGGGACGTGCTA`, “fitted relative affinity” read -0.592 z-score.

Set 4
Target: Histone acetyltransferase KAT6A, winged helix 2, GST fusion (KAT6A, Homo sapiens, UniProt Q92794, residues 85-181)
Technique: protein binding microarray
Form: double-stranded DNA, one strand shown
Sample: in vitro
Concentration: not given
Notes: 8-mer, flanks averaged, mean of 2 arrays, mostly near background
Reference: not given
Direction: higher = stronger binding
Residues (chain): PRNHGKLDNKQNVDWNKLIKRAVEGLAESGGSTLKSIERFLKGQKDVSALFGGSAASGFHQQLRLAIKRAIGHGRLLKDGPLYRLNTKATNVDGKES
With `ACTTCCGG` the E-score was -0.0403.
For `CCACAGAA`, the E-score was 0.0139.
`CCCTGCTC` has an E-score of 0.085.
With `CCAGATAC` the E-score was -0.0743.
`CGAAGGTA` has an E-score of 0.0079.
For `ATTCTTGG`, the E-score was 0.0662.
With `AATTCATG` the E-score was 0.17.
For `CCAGCGTC`, the E-score was 0.0434.
`GTGATATA` has an E-score of -0.21.
For `ACAGCTTG`, the E-score was 0.044.
`GCATACCC` gave an E-score of 0.111.
For `GCCGTCAA`, the E-score was 0.0709.
The E-score of `AGATTACT` is reported as 0.0533.
`CGCCCTCC` has an E-score of 0.0674.
With `ACACGATC` the E-score was -0.107.
`AGACGAAG` has an E-score of 0.0896.
The E-score of `ACCTTATC` is reported as -0.0386.
For `TACATAGA`, the E-score was -0.14.
`ACGGGTAA` has an E-score of -0.0625.
The E-score of `ACTGAGCT` is reported as 0.0567.
`CTGATAGA` has an E-score of 0.0887.
`ATCACCGC` gave an E-score of -0.106.
`AGTGCCCA` has an E-score of 0.0894.
`CCAACAGA` has an E-score of 0.0121.
The E-score of `ACTCATCT` is reported as -0.136.

Set 5
Target: RNA binding protein fox-1 homolog 2, RRM domain, GST-SBP tag (RBFOX2, Homo sapiens, UniProt O43251-10, residues 100-194)
Technique: RNA Bind-n-Seq
Form: RNA
Sample: in vitro
Concentration: 365 nM
Notes: natural RNA segment, single round, ends assumed
Reference: no-protein control
Direction: higher = stronger binding
Construct (chain): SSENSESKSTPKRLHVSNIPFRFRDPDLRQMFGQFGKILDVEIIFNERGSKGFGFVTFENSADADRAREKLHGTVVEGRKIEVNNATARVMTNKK
For `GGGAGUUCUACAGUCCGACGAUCGCCCUCUCAUUGACAUGUACACUACUCCUCGCUGCAGGGCACUGUUCCACCUGGAUCCAGUUGCAAAGUUUGGAAAAGUUCUCUUAGUUUUACUGGAUUCUCAGGGAGCCUGGAAUUCUCGGGUGCCAA`, “RBNS enrichment (R)” read 0.85.
`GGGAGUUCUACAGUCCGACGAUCUGUCAAUAAGCUUGCAUUAAGCCACCUGCUUUGUAAGUGGAUUGAUUAAUAAAUAACUUAUAUUUCUUUGUCUUUGUGUUUCAUAAUUAGUGUUUAUAAAAUGGUUUACAUGGAAUUCUCGGGUGCCAA`: “RBNS enrichment (R)” 1.5.
Under “RBNS enrichment (R)”, `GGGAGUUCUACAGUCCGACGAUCCAGCGAAGCUGUAACUGAGGACCCUGCUGCUCGGGAAGGAGGUGGUUUCCAGUGUGACUCGGCAUGUCAUGGCUACCCAACCUUUGCCGCUGCCUGUUCCCACGUGUCACUGGAAUUCUCGGGUGCCAA` is recorded as 1.21.
`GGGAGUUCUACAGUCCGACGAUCAAUACCUGAUAUAUUAAAAUGUAGUGCCUGUGAAAUCUGUAUUAUAUUGCUCUUCUGAAGUAAGAUUUUUCUACACCGGUAGCCUUCGCUGUCUGUCAGUCAGGACCUUCUGGAAUUCUCGGGUGCCAA`: “RBNS enrichment (R)” 4.44.
`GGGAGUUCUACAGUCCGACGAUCACAGAUGAUCAUAGCAGGGAUUUGAAAUAUGAAUUAUGGUUACAUGGUCCUGAUUUUUUUUUUUUGGUGACAUGAAUGGAACAGAAGUAUUUUGUUUUAGAAGGUCCUGGUGGAAUUCUCGGGUGCCAA`: “RBNS enrichment (R)” 0.46.
`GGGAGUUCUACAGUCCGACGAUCUACAUAUAUAGAGAUAAUUCUCAAUGCCUAAUUAAUAUACUUAUACAUUUGUUAAGGUAUGCGCAUAAUUACAGCAACUGUUUUUAUAGUUUGUAUCCCAGAGUAUACUGUGGAAUUCUCGGGUGCCAA` — result for “RBNS enrichment (R)”: 0.262.
Under “RBNS enrichment (R)”, `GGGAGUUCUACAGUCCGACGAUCUUCCCUCUUCCACCCCAGCUCCAGCCCUGGUCUUUCUUCCUCUUUCCCAUAACAGAAGCUAUGGCCCUGGCCAUGUCAUCGUGUUCCUGUGUCCCUUGCAUGUUCCCCACUGGAAUUCUCGGGUGCCAA` is recorded as 8.87.
`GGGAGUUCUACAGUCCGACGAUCCCAUGCAUGAGUGGUUCUUGCACCCCUGAAUGAGGAAUGCUUCCUCUGUGACAGGCUCCUCCCCACCCCCGGAUAUCCCGGUGCUGCCAGUAGUGAGUGGACAGAUGGAAUGGAAUUCUCGGGUGCCAA`: “RBNS enrichment (R)” 21.5.

Some of these lines once more (set 4):
The E-score of `AGATTACT` is reported as 0.0533.
`CGCCCTCC` has an E-score of 0.0674.
With `ACACGATC` the E-score was -0.107.
`AGACGAAG` has an E-score of 0.0896.
The E-score of `ACCTTATC` is reported as -0.0386.
For `TACATAGA`, the E-score was -0.14.
`ACGGGTAA` has an E-score of -0.0625.
The E-score of `ACTGAGCT` is reported as 0.0567.
`CTGATAGA` has an E-score of 0.0887.
`ATCACCGC` gave an E-score of -0.106.
